Measured values gathered from unrelated publications.
Every numbered part comes from another study and shows a few of its results, in no order.

Series 1 — method: RNA Bind-n-Seq; form: RNA; sample: in vitro; concentration: 365 nM; baseline: no-protein control; reading: higher = stronger binding
Target: RNA binding protein fox-1 homolog 2, RRM domain, GST-SBP tag (RBFOX2, Homo sapiens, UniProt O43251-10, residues 100-194)
Notes: natural RNA segment, single round, ends assumed
All sequences stand within: GGGAGUUCUACAGUCCGACGAUC … UGGAAUUCUCGGGUGCCAA
Construct (chain): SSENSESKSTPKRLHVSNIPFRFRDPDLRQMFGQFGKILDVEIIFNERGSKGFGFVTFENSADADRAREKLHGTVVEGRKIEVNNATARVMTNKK
Strand | RBNS enrichment (R)
AUAGCAGACGGACAGCCAGUGACCAUUCAUGGUCUGGAAUGUGAAGUUCACUACCAUUUGUCAAGAACCACUCUGUCCACAUCCUUUGACCUUUUGGCUUCCACGUCACC | 0.211
AUGGGUAGCUGGCUCACAUCCCCAGCCAAGCCUCGAACUGUUGACAAGACCAGGGAGAAUCCACCCAUGGGCGCCCACCAGGUUCUUAUGGAUGCAAGCAGGAGAAGCUC | 0.818
GUAUCCAUAAAGGAUGCUAGCCUGCCUUGUACUAAUGUUUUAUAUAUUAAAAAAAAAAAAUCUAUCAACCAUUUCAUAUAUAUCCCACUACUCAAGGUAUCCAUGGAACA | 0.461
UCUGAUUAAUUGCUCUAUUAAAAUAAGGGGCAUUUAAAGACCCAGCAUAACCAUUUGUAUAAUGAGAAAUCUAGGGGAAAACCAAUCAGUCCAACAUGAGAUUUUAGGAA | 0.408
ACCUCAUGCCUGGCCCCCCUCCAGGCAUGCUGGCCUCCCAAUAAAGCUGGACAAGAAGCUGCUAUGAGUGGGCCGUCGCAAGUGUGCCAUCUGUGUCUGGGCAUGGGAAA | 0.625
GGGGAGAUUGAAGACCUGGCUUUAGGGCCUGAUGGCAAGUUGGUAACCGUGGGCCGGGACCUUAAGGCCUCUGUGUGGCAGAAGGAUCAGCUGGUGACACAGCUGCACUG | 0.383
CUUGAUUAAACAGUUUUUCUUGUUGCACAGUCCUAAUUUCAUAAGGUCAAGGAGACACUCAGGCAUUCCAGGAAACAAAUGUGUACAUGAUGUUACCAGAAACAGGCAUU | 1.03
GAUUCUGUCAUCAUGCCCCCUCCCCACUUGUUCCUGCAGUUAUUAAAUAUUAACCAGGUUAGUGUUGAGUUAGAAAUUACAUUUCUGAGUUCAAGCGUUGUCUUUUUAAG | 0.48
CAGGCAACAGACACAAUCUGUGCUGAUUAAACUGUCAGCUGGAUACCAGACUUUUAGGGAGACUGGACAAACAUCAGGACUGGCUUUUAUAAGUAGGCAGGUAAUCUUCA | 0.294
UGCAGAAUGACAGCUCUUUGUUUCUGAAGUAACCAGCACACCACACUCAUGUUUAAAAGGACAAAGGGGAAUGAAGGUCAGUGAGAUCUAAAAAGUGUAUUUCUUUGCCA | 1.22
UCAUCAGGCCAUUACAUUGUCCAUGUUAAAAUUAUAAAAAUGAUCCUAGUUUUUCAUAGGAGUCUAGGAUUUUGAUCUUUUAAAAAAUACAGUGUGAUUUCAUGCUUUUG | 0.425
UUAUCAAAGUUAAAGCGCCUCUUCACUCAAAAGGGCUUCAAAAUGUAAAUGGCUCUAGAGUUAGAGUGACUGUUUGCUCUUCUGCUUUCUGGAAUGCAGAUGACAGUAUG | 0.486

Series 2 — method: RNA Bind-n-Seq; form: RNA; sample: in vitro; concentration: 100 nM; baseline: input RNA pool; reading: higher = stronger binding
Target: RING finger protein unkempt homolog, zinc fingers 1-6, SBP tag (UNK, Homo sapiens, UniProt Q9C0B0, residues 30-357)
Sequence of UniProt Q9C0B0 (30-357, looked up): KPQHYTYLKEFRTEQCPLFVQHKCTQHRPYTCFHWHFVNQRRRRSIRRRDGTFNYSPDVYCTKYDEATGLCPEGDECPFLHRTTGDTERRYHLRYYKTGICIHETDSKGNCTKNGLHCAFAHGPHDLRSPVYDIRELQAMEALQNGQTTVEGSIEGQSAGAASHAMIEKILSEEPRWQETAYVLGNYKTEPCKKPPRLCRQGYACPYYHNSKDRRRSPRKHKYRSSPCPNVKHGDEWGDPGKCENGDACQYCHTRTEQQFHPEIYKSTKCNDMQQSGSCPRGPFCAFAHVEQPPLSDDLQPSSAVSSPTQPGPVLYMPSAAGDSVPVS
Notes: RNA with constant flanks, vertebrate orthologous sites, ends assumed
All sequences stand within: GGGAGUUCUACAGUCCGACGAUC … CAACAGAGGAUUGAGCAUCA
Strand | bound/input enrichment
AAUCAGUAGAAUUACGUAAUACUAAAGUUGCAGUUGAAAGGAUAUCCAAGUAUGUGUUGGUAGUUACUAAAAGAAUUAUAGCUGUUAUUGCCUUGUAUUUAUAGCCCUGUUUCAGGUUUC | 1.06 ratio
CAUUUUCUUACUUUAGGUAUCAUUGCCCAGUGCCCAAGAUCUUUUACGUUCAGCUGACUGUAGGAAAUAAUGAAUUUUUUGGGGAAGGGAAGACUCGACAAGCCGCUAGACACAAUGCCG | 1.24 ratio
ACACUUGCAUUGUGGCGCAUAGACGACAUGGAAGUAGACCAGCUCUGCUGAUUUGAAACUUAGAUUUUUAAUUAUGUACUGGGGACAGGUUUUUGUCGCUUUACAUUGCUUCCUAGUUUA | 2.26 ratio
UGAAUAAACUGGGAUUUUCAAACAAUAGGAAGCUUUUUUUUUUUUUUUUAAACAGUUUAGUGUUUGGUUUGGUUUUUAUGUGGAGGACUAAACUCAUGCUUAGAGCUACAUGUGGUCUUC | 1.54 ratio
UGACCAUACAUAUACAAUGUGUAUCAAAUGCUGGUUGUAAAAUUAAACCAUCAUCUAGAAUAGAGUUAAUUUGUUAUAAUCAAGCUACAAAUAGGUUGUCUUAAACCAGAGAUGAUGCAC | 0.589 ratio
UCCUCUCAACCCCAUUUCUUCUGUUUCAUAGUGCAGAAGUAUUCUUUUCACCUGUAUCUUUAGUGGACUUGUUUUAAUUUUAGAGGAAUUUCCAGGACAGACACUGUGAGCUGACAUGGG | 1.16 ratio
AAGGUGUGCUCUUUGGGGAGCUGCUGGCCGCUUAGCAUUGUUUGAUUUAUGACCUUGACAUAAUAGAUAGGCUCGUGGUUUUUUUAAUUUAAAGAUGUUAAGACUUAAUUCACUAAAAUU | 0.64 ratio
AAAUUUAUUUUAUGCCCUGGACUCCCUACCGCACCGAUACCUUAAUAGAAUAUGCUUCUUUAGAAGAUUUUCAAAACAGCCGCCAGACAACAACAUACAAACUUCCAAACCGAGUGGACG | 1.39 ratio
UUUGAGUUAGUUUUCCACAUUUUCUGUAAAUAAUGGAUAAUCUUUUUAAAGUUUAUUUUUAAGUGCUGUUUUAACAAUGCGGACAGACUAUAAAUGUACUUGCUGAAUUCAUUCAUUUUU | 0.282 ratio
CAGUCCUCUACUUAAACUGGUAUUUUCAAACAAUAGGAAGCUAUUUUUUUUUUUUUACAGUUUAGUAUCUUGUUUCUACAUGGAAGACUAAACAUGCUUAUAGCUAAAUGUGGUCUUUGC | 0.57 ratio
CCCUUCGGAGGGGCAGGGGUGGGUAGGCCAGGUCUGCUGACAACAUCCGCCUGCCAUUUUAGCGUUUUUUUUUUUUUUUUUUUUUUUUUUUAAUUUUAACAGUGCCCUUAUUUCCUGUAC | 7.4 ratio

Series 3 — method: universal PBM; form: double-stranded DNA, one strand shown; sample: in vitro; concentration: 600 nM; reading: higher = stronger binding
Target: Sal-like protein 4, full length isoform A (SALL4, Homo sapiens, UniProt Q9UJQ4, residues 1-1053)
Sequence of UniProt Q9UJQ4 (whole entry, looked up): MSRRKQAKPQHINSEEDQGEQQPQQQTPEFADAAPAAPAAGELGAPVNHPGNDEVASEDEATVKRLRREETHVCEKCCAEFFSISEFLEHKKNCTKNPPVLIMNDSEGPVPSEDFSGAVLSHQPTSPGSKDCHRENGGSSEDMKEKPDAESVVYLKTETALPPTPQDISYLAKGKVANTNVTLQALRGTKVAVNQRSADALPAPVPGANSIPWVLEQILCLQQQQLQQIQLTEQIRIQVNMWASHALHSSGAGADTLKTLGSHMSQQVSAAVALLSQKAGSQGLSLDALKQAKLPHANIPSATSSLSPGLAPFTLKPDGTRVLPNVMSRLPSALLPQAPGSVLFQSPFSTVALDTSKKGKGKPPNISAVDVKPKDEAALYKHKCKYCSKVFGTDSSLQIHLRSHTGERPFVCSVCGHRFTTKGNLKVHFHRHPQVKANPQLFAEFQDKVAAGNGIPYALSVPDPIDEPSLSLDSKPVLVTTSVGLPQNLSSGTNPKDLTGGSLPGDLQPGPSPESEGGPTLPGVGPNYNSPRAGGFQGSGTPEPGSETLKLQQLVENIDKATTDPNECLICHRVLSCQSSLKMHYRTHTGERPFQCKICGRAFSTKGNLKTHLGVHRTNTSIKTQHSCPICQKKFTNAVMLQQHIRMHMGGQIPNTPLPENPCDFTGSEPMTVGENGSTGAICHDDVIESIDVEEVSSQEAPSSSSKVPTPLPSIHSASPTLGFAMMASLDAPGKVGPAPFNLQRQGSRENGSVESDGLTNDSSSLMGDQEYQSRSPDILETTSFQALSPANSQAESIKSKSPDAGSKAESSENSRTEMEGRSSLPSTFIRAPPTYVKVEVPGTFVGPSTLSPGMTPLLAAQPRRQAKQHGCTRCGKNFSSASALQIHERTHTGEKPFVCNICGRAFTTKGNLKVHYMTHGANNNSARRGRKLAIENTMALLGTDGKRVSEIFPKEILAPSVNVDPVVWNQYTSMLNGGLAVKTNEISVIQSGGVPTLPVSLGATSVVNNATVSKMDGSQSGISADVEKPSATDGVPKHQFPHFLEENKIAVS
Notes: 8-mer, flanks averaged, mean of replicates
Strand | E-score
AATCGACG | -0.0251
CCCCAGGA | -0.332
CATTGGTC | -0.123
CATGTCGC | -0.0812
AGGCCAAC | -0.222
CAGATCAC | -0.0947
CAATGAGC | -0.166
ATAGGGTC | -0.15
AGACTCCC | -0.212
GACCTGTA | 0.01
CCATGAGA | 0.00212
ATTTTGGG | 0.107
ACTTCCCT | -0.108
ACGCGACG | -0.209
AAAGCATT | 0.228
GCTATGTA | 0.201
GTGGACTA | -0.0462
CATTCTGA | 0.117
AGAGTATG | 0.0232
AAAATCCA | 0.258
CGTTAAAC | 0.167

Series 4 — method: protein-binding microarray; form: double-stranded DNA, one strand shown; sample: in vitro; concentration: 2200 nM top; notes: 60-bp whole probe; added: salmon DNA 0.4 mg/ml; baseline: random background probes; reading: higher = stronger binding; all sequences stand within: GCCTAGCAC … GTCTTGATTCGCTTGACGCTGCTG
Target: Interferon regulatory factor 7, full length, phosphomimetic (IRF7, Homo sapiens, UniProt Q92985, residues 1-503, S471D/S472D/S475D/S476D/S477D/S483D/S484D/S487D)
Sequence of UniProt Q92985 (whole entry, unmodified, looked up): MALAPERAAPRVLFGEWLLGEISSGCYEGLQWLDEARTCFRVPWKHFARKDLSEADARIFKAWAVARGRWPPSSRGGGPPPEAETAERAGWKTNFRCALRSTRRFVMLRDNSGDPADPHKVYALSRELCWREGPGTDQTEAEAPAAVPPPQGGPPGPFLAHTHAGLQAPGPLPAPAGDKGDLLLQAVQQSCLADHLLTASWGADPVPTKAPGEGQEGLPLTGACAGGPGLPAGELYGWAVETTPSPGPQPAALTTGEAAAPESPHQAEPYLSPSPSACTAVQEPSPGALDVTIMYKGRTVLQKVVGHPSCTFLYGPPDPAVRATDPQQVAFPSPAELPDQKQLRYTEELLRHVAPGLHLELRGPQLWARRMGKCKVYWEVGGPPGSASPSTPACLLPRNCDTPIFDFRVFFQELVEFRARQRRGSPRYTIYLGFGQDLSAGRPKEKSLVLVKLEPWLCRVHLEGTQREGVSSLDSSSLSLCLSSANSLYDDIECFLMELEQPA
Strand | fitted relative affinity [z-score]
GACGGTTTCGGGTATCGGGATGTGCTA | 6.11
GACGGACTGGGTTTCGGGCCGTGCTAG | 0.214
TTAGAATTCAGTATCGATTAGTGCTAG | 0.0622
GACGATTTCAGGTTTCGAGACGTGCTA | 2.95
GACGAACTGGGGGCTGGAGACGTGCTA | 0.531
TTCGGTCTCCTTCTCCTTTAGTGCTAG | 2.15
TTAGGTATCATTATCCTTTAGTGCTAG | 0.59
AGGACTCTGGAGGTTGAGAAAGTGCTA | -1.21
TCAACTTTCTTTAACATACTGTGCTAG | 1.01
TTAGGACTGGGACTGGGTTAGTGCTAG | -0.826
TTTGCATTGCTTCTATAGGCGTGCTAG | 0.817
GACGGTATCGGTTTCAGGACGTGCTAG | 2.29
TCAAGTCTTCTCCTCTAACTGTGCTAG | 0.672
TTCTCCATGGGTATGGCCTAGTGCTAG | 0.185
CTTTATGTACTCTCTCCATGTGTGCTA | 1.74
GGCCCTATAGGTTTCTATATGTGCTAG | 0.425
GACGGTATCCTTATACTGACGTGCTAG | 0.604
GACGGTTTCGGGTATAGGGACGTGCTA | 4.75
TTGGGTCTCCTTTTCCTTTAGTGCTAG | 1.79
